# Measured values collected from several papers.
# Numbered parts are unrelated; each lists some results of a single study.

# Sample 1
# Cell line: HEK-293T
# Effect on: pseudovirus infection
# Method: FDA-approved drug library screen
# Organism: VSV pseudotyped with SARS-CoV-2 spike
# Concentration: 10 µM
# Time: 16 h
# Reference: vehicle-treated
SMILES,GFP-positive cells [%]
CC(C)Cc1ccc(C(C)C(=O)O)cc1 (centres unmarked),94
CC(=O)O[C@@]12CO[C@@H]1C[C@H](O)[C@@]1(C)C(=O)[C@H](O)C3=C(C)[C@@H](OC(=O)[C@H](O)[C@@H](NC(=O)OC(C)(C)C)c4ccccc4)C[C@@](O)([C@@H](OC(=O)c4ccccc4)[C@H]21)C3(C)C,98.1
CC(=O)OCC1=C(C(=O)O)N2C(=O)[C@@H](NC(=O)Cc3cccs3)[C@H]2SC1,86.9

# Sample 2
# Target: Replicase polyprotein 1ab, polymerase (rep, Severe acute respiratory syndrome coronavirus 2, UniProt P0DTD1)
# Effect on: enzyme activity
# Action: inhibitor
# Concentration: 20 µM
SMILES,inhibition [%]
COC(=O)c1cnn(-c2ccc(F)cc2F)c1/C=N/NC(=S)NC(C)(C)C,-0.46
Oc1cc(O)c(Cl)cn1,1.77
CCS(=O)(=O)N1CCC[C@@H]2CN3CCc4cc(OC)ccc4[C@@H]3C[C@@H]21,-0.16
CN1CCCC(CC2c3ccccc3Sc3ccccc32)C1 (centres unmarked),-5.61
CN(C)CCOc1ccc(-c2nc(-c3ccncc3)c(-c3ccc4c(c3)CC/C4=N\O)[nH]2)cc1,-3.77
Nc1cc(F)ccc1NC(=O)c1ccc(CNC(=O)/C=C/c2cccnc2)cc1,-2.09
COc1ccc(CN(C(=O)[C@@H](N)Cc2c(C)cc(C(N)=O)cc2C)[C@@H](C)c2ncc(-c3ccccc3)[nH]2)cc1C(=O)O,-0.38
O=C(CCc1ccc(O)cc1)c1c(O)cc(O)cc1O[C@@H]1O[C@H](CO)[C@@H](O)[C@H](O)[C@H]1O,-1.4
O=C(O)c1ccccn1,0.02
CN(C)C(=O)Oc1cccc([N+](C)(C)C)c1,31.3
C#C[C@]1(O)CC[C@H]2[C@@H]3CCC4=CC(=O)CC[C@@H]4[C@H]3C(=C)C[C@@]21CC,-2.14
COc1ccc(COc2cc3oc(=O)c4cc(C(C)O)ccc4c3cc2OC)cc1 (centres unmarked),2.34
CCCCCOc1ccc(-c2ccc(-c3ccc(C(=O)N[C@H]4C[C@@H](O)[C@@H](O)NC(=O)[C@@H]5[C@@H](O)[C@@H](C)CN5C(=O)[C@H]([C@@H](C)O)NC(=O)[C@H]([C@H](O)[C@@H](O)c5ccc(O)cc5)NC(=O)[C@@H]5C[C@@H](O)CN5C(=O)[C@H]([C@@H](C)O)NC4=O)cc3)cc2)cc1,9.19
NC(Cc1ccc(O)cc1)C(=O)O (racemic),-0.73
CC(C[N+](C)(C)C)OC(N)=O (centres unmarked),-0.75
CCNC(=O)N1CCN(CCCC(c2ccc(F)cc2)c2ccc(F)cc2)CC1,1.86
Cc1csc(S(=O)(=O)N(CC(C)C)c2cc3c(cc2OCc2ccc(C(=O)O)cc2)CCC3)n1,4.61
CN1C(=O)N(c2cc(Cl)cc(Cl)c2)C(=O)[C@]12CN(c1ccc(C(=O)O)cn1)C[C@H]2c1ccc(C#N)cc1,-3.68
O=S(=O)(NC1CCNCC1)c1cc(S(=O)(=O)c2ccccc2)ccc1C(F)(F)F,-3.78
Cc1c(Cc2ccc3ccccc3n2)c2cc(F)ccc2n1CC(=O)O,1.19
CC(=O)N1CCN(C)CC1,-19.5
O=C(Nc1cc2cc[nH]c2cn1)c1ccccc1,2.27
C[C@]12CC[C@H]3[C@@H](CCC4=CC(=O)CC[C@@]43C)[C@@H]1CC[C@@H]2O,0.69
CN1CCCCC1CCN1c2ccccc2Sc2ccc([S+](C)[O-])cc21 (centres unmarked),0.42
C#Cc1cncc([C@@H]2CCCN2C)c1,-0.75

# Sample 3
# Target: Interferon regulatory factor 5, full length, phosphomimetic (IRF5, Homo sapiens, UniProt Q13568-2, residues 1-514, K96S/S451D/S453D/S456D/S462D)
# Method: protein-binding microarray
# Molecule type: double-stranded DNA, one strand shown
# Matrix: in vitro
# Concentration: 250 nM
# Notes: 60-bp whole probe
# Together with: salmon DNA 0.4 mg/ml
# Reference: random background probes
# Direction: higher = stronger binding
# Constant ends, left off below: GCCTAGCAC … GTGCTAGGTCTTGATTCGCTTGACGCTGCTG
Sequence,log fluorescence
GACGAACTGGGTTTCGAGAC,2.07 z-score
TCAAATTCTCTTTTCACACT,1.14 z-score
CATCTCGGGCCGCCGGGCCG,-0.76 z-score
TCACATTTTTCCCTCTGACT,1.03 z-score
TGCACTCTCTACATGTGTTT,0.318 z-score
TAATGCTTCTGTATTCATGA,0.342 z-score
GACGGTACCCTTCTCCTGAC,-0.15 z-score
TTAGGTTTCCTTTTCCATTA,1.48 z-score

# Sample 4
# Target: Sal-like protein 4, full length isoform B (SALL4, Homo sapiens, UniProt Q9UJQ4-2, residues 1-616)
# Method: universal PBM
# Molecule type: double-stranded DNA, one strand shown
# Matrix: in vitro
# Concentration: not given
# Notes: 8-mer, flanks averaged, mean of replicates
# Direction: higher = stronger binding
Sequence,E-score
AAGGCAAC,-0.0151
CGCGTCCC,-0.4
ACGTAGCC,-0.088
AAGACGAC,0.0177
ATGGTCTC,-0.0196
GAGGATTA,0.109
ATCGCCCC,-0.229
AACCCAGT,-0.18

# Sample 5
# Target: Max-binding protein MNT, bHLH-zipper, MAX partner unstated (MNT, Homo sapiens, UniProt Q99583, residues 220-300)
# Method: protein-binding microarray
# Molecule type: double-stranded DNA, one strand shown
# Matrix: in vitro
# Concentration: not given
# Notes: k-mer, scored over probes, only values ≥0.25
# Direction: higher = stronger binding
# Residues (chain): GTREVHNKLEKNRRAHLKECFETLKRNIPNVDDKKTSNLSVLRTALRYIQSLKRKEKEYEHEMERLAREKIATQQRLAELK
Sequence,E-score
CAACGTGC,0.448
CTCCCCGC,0.253
GCATGGAC,0.369
CAGGCACG,0.36
CACGTGAC,0.497
AAAGCACA,0.252
CGCACCCC,0.336
CGCAACCA,0.268

# Sample 6
# Target: Replicase polyprotein 1ab, main protease (rep, Severe acute respiratory syndrome coronavirus 2, UniProt P0DTD1)
# Effect on: enzyme activity
# Action: inhibitor
# Concentration: 20 µM
Structure (SMILES),inhibition [%]
CCC(C)SSc1ncc[nH]1 (centres unmarked),7.75
[NH2][Pt]([NH2])([Cl])[Cl],97.7
CN1CC[C@@]2(C)c3cc(O)ccc3N(C)[C@@H]12,-0.64
Nc1nc(-c2ccc(Cl)c(Cl)c2)c(-c2ccncc2)s1,-20.4

# Excerpt of the above (sample 2):
SMILES,inhibition [%]
C#C[C@]1(O)CC[C@H]2[C@@H]3CCC4=CC(=O)CC[C@@H]4[C@H]3C(=C)C[C@@]21CC,-2.14
CC(=O)N1CCN(C)CC1,-19.5
C[C@]12CC[C@H]3[C@@H](CCC4=CC(=O)CC[C@@]43C)[C@@H]1CC[C@@H]2O,0.69
CN1CCCC(CC2c3ccccc3Sc3ccccc32)C1 (centres unmarked),-5.61
COc1ccc(COc2cc3oc(=O)c4cc(C(C)O)ccc4c3cc2OC)cc1 (centres unmarked),2.34
CC(C[N+](C)(C)C)OC(N)=O (centres unmarked),-0.75
O=C(Nc1cc2cc[nH]c2cn1)c1ccccc1,2.27
CN1CCCCC1CCN1c2ccccc2Sc2ccc([S+](C)[O-])cc21 (centres unmarked),0.42
Oc1cc(O)c(Cl)cn1,1.77
